Measured values from different studies.
Compare with care: the assays were run in different laboratories. “And” joins repeats or separate records; there may be more than shown. Numbers after ± are the reported error.
BCHE: Cholinesterase (BCHE, Equus caballus, UniProt P81908)
UniProt P81908, sequence (whole entry, looked up): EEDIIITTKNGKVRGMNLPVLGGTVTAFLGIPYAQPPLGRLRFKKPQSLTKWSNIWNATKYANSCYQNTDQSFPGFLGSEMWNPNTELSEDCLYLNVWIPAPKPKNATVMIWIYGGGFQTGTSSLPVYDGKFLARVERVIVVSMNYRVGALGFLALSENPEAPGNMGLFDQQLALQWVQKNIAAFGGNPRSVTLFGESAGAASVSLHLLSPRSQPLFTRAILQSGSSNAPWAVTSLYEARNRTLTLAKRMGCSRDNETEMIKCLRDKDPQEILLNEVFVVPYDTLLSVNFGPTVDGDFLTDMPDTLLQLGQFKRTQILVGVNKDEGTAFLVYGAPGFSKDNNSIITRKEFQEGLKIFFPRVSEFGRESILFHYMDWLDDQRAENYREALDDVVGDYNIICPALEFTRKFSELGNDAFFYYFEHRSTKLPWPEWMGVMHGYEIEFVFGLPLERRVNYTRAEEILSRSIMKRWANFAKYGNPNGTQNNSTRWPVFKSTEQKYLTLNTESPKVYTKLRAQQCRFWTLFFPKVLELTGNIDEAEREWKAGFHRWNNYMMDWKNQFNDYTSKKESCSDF
UniProt P04637, sequence (whole entry, unmodified, looked up): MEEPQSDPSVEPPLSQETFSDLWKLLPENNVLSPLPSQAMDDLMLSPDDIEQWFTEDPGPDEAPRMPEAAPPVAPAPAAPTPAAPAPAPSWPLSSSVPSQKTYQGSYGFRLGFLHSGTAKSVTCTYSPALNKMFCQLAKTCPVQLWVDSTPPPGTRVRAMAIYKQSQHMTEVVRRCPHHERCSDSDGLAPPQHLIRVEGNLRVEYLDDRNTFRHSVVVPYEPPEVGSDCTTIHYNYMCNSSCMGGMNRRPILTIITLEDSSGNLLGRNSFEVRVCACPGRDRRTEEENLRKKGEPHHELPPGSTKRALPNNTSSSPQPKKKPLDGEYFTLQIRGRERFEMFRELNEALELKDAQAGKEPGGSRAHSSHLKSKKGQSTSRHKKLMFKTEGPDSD
UniProt P39135, sequence (whole entry, looked up): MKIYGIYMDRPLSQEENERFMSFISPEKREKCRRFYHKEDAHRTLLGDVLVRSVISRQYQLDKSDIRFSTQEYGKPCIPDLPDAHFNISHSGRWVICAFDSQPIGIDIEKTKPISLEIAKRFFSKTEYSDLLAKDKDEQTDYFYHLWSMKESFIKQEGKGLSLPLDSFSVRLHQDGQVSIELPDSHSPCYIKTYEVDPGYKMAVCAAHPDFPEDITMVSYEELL
UniProt P19784, sequence (whole entry, looked up): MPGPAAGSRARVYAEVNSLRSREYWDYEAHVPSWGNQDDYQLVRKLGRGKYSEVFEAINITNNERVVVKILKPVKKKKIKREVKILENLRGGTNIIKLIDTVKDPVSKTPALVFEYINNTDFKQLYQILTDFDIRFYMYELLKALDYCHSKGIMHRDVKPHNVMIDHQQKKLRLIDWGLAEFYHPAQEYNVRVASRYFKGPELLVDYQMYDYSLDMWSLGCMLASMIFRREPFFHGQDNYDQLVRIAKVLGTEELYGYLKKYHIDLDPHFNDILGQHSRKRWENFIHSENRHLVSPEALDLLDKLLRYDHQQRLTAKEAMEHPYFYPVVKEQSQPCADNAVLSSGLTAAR
UniProt P17787, sequence (whole entry, looked up): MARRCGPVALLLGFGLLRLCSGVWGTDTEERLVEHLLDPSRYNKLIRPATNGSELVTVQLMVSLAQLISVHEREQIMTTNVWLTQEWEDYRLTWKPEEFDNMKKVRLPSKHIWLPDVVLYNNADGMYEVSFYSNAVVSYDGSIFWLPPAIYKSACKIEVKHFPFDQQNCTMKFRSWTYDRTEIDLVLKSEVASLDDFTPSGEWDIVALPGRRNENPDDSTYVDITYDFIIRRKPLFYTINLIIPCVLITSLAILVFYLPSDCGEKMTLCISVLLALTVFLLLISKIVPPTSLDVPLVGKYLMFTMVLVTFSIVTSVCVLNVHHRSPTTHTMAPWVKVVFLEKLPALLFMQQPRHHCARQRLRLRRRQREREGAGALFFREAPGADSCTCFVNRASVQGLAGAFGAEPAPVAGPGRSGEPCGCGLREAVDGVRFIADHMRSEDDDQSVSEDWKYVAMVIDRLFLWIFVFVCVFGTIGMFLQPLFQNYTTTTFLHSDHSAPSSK
UniProt P43681, sequence (whole entry, looked up): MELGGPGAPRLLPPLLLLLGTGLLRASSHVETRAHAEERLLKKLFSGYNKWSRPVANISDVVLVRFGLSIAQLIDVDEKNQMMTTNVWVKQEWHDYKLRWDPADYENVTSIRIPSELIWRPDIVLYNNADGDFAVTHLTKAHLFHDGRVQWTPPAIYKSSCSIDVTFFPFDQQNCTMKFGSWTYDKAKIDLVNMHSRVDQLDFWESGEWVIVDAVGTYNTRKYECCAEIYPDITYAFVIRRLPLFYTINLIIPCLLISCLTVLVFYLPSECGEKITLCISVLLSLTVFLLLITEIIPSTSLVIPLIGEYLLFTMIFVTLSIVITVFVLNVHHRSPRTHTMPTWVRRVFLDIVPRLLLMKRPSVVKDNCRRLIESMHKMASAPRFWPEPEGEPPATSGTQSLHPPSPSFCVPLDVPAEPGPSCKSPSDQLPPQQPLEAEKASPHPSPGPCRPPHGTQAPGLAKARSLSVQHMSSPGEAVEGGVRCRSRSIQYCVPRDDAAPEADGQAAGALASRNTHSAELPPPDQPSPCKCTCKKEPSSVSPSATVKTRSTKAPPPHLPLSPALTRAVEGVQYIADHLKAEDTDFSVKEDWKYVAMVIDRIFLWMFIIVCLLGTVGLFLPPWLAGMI
UniProt Q16678, sequence (whole entry, looked up): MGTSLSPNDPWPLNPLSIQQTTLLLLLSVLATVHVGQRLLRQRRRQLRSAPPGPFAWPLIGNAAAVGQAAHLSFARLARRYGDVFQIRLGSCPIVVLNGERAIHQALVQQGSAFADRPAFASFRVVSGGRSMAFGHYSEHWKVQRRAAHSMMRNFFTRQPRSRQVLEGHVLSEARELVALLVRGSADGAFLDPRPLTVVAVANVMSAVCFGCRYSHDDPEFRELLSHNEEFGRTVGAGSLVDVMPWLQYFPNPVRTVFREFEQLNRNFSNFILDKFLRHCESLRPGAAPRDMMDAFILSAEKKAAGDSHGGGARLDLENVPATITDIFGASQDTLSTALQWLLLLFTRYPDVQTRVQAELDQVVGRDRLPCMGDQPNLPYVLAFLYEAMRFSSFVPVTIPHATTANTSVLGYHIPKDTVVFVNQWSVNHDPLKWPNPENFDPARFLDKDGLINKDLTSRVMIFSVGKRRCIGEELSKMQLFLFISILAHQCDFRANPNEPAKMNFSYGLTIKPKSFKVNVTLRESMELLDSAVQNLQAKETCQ
UniProt P08659, sequence (whole entry, unmodified, looked up): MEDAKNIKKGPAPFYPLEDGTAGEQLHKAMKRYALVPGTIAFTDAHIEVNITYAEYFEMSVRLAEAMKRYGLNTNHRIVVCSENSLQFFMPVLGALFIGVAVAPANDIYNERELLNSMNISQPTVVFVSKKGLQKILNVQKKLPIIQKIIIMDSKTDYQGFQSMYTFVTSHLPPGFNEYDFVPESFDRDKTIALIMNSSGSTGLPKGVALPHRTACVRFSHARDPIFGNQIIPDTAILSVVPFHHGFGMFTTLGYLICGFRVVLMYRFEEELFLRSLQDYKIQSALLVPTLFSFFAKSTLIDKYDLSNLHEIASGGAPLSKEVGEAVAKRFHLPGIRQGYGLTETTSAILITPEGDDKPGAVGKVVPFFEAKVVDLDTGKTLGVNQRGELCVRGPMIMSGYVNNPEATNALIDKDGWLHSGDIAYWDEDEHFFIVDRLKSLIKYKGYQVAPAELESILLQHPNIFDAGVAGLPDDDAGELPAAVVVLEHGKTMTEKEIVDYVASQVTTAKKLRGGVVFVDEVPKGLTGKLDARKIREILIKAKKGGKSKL
UniProt Q87P32, sequence (whole entry, looked up): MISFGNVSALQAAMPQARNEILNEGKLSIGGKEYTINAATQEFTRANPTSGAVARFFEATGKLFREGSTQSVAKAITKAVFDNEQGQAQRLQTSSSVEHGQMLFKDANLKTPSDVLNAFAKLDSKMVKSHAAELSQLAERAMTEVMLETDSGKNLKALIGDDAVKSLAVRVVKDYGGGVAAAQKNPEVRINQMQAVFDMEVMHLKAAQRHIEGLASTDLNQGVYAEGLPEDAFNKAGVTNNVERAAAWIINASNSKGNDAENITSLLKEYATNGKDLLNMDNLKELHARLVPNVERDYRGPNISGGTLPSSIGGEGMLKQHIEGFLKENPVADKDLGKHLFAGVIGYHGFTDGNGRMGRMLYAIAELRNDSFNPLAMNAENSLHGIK

The IC50 of `COc1ccc(NC(=O)N2CCCCN3[C@H](CN)[C@H](c4ccc(C#Cc5ccccc5)cc4)[C@@H]3C2)cc1` is reported as 0.045 µM and 0.046 µM (Phenylalanine--tRNA ligase alpha subunit (Plasmodium falciparum, UniProt Q8I246); aminoacylation activity, inhibitor).
`COc1c(Br)cc(C(c2c(O)c3ccccc3oc2=O)c2c(O)c3ccccc3oc2=O)cc1Br` has an IC50 of 3.31 µM (Alpha-glucosidase MAL12 (MAL12, Saccharomyces cerevisiae S288c, UniProt P53341); enzyme activity, inhibitor, absorbance; pH 6.9).
For `CN1CCN(Cc2nc3cccc4c3c([n+]2[O-])-c2ccccc2-4)CC1`, the IC50 was 4.1 µM (TP53/Luciferin 4-monooxygenase (Homo sapiens, UniProt P04637+P08659, D436G/I423L/L530R); p53 DNA binding, inhibitor, luciferase complementation).
`CC1=C(C(=O)NC(=O)c2cnccn2)C(c2cccc(Cl)c2)NC(=O)N1` (stereo not shown) gave an IC50 of 4.96 ± 0.01 µM (BCHE).
For `CSCC[C@H](NC(=O)[C@H](C)N)C(=O)N[C@@H](CCCNC(=N)N)C(=O)N[C@@H](CC(C)C)C(=O)N[C@H](C(=O)N[C@@H](Cc1c[nH]cn1)C(=O)N[C@@H](CC(N)=O)C(=O)N[C@@H](Cc1ccccc1)C(=O)N[C@@H](Cc1ccccc1)C(=O)N[C@@H](Cc1ccccc1)C(=O)N[C@@H](CC(N)=O)C(=O)N[C@@H](Cc1ccccc1)C(=O)N[C@@H](Cc1ccccc1)C(=O)N[C@@H](CCCCN)C(=O)N[C@@H](CCCNC(=N)N)C(=O)N[C@@H](CCCNC(=N)N)C(=O)O)[C@@H](C)O`, the IC50 was over 10 µM (histidine kinase ComD (Streptococcus pneumoniae serotype 4, UniProt A0A0H2US84); reporter gene, antagonist; Streptococcus pneumoniae, TIGR4 comX::lacZ; 30 min, 37 °C, with: CSP2 250 nM).
For `C=CC(C)(C)c1[nH]c2cc(Br)ccc2c1CCNC`, the IC50 was 100 µM (Neuronal acetylcholine receptor; alpha4/beta2, (α4)3(β2)2 stoichiometry (Homo sapiens, UniProt P17787+P43681); ion current, inhibitor, two-electrode voltage clamp; Xenopus oocytes; low-sensitivity α4β2 stoichiometry, with: 100 µM acetylcholine (EC75)).
With `CNc1ncnc2c1ncn2[C@H]1C[C@H](OP(=O)(O)O)[C@@H](COP(=O)(O)O)O1` the IC50 was 7.7 µM (sfp (Bacillus subtilis, UniProt P39135)).
With `N#CC1(C#N)C2C=CC(c3coc4cccc2c34)C1(C#N)C#N` (stereo not shown) the IC50 was 16.1 µM (Replicase polyprotein 1ab, main protease (Feline coronavirus, UniProt Q98VG9); enzyme activity, inhibitor, FRET).
For `CC[C@H](C)[C@H](NC(=O)[C@@H]1CCCN1C(=O)[C@H](CC(=O)O)NC(=O)[C@H](CCC(N)=O)NC(=O)[C@H](CCCNC(=N)N)NC(=O)[C@H](CCCNC(=N)N)NC(=O)[C@H](CCC(N)=O)NC(=O)[C@H](CCCNC(=N)N)NC(=O)[C@H](CCCNC(=N)N)NC(=O)[C@H](CCCCN)NC(=O)[C@H](CCCCN)NC(=O)[C@@H](N)CCCNC(=N)N)C(N)=O`, the IC50 was 0.37 µM (human 20S proteasome; chymotrypsin-like activity, inhibitor; with: SDS 0.005%).
`CN1C(=O)[C@]23SS[C@@]1(C)C(=O)N2[C@H]1Nc2ccccc2[C@@]1([C@@]12c4ccccc4N[C@@H]1N1C(=O)[C@@]4(C)SS[C@]1(C(=O)N4C)[C@H]2O)[C@@H]3O` gave an IC50 of over 10 µM (Histone-lysine N-methyltransferase SETMAR (Homo sapiens, UniProt Q53H47); enzyme activity, inhibitor, radiometric).
The IC50 of `CCC(=O)Nc1cc(Nc2cc(NC3CC3)n3ncc(C#N)c3n2)ccc1N1CCNCC1` is reported as 0.2 µM (Casein kinase II subunit alpha' (CSNK2A2, Homo sapiens, UniProt P19784); target engagement in cells, BRET).
With `O=C(NCCCCCn1ccc2ccc(F)cc21)Oc1ccccc1` the IC50 was ~4 µM and 4.3 µM (BCHE; enzyme activity, inhibitor, HPLC).
`COc1cccc2c1C(=O)c1c(O)c3c(c(O)c1C2=O)C[C@@](O)(C(=O)CO)C[C@@H]3O[C@H]1C[C@H](N)[C@@H](O)[C@H](C)O1` gave an IC50 of 2 to 5 µM (CRISPR-associated endonuclease Cas9/Csn1 (cas9, Streptococcus pyogenes serotype M1, UniProt Q99ZW2); DNA cleavage, inhibitor, in vitro cleavage; Streptococcus pyogenes; with: plasmid or 87 bp linear DNA substrate).
`c1ccc2c(c1)-c1cccc3c1c-2cc1ccccc13` has an IC50 of under 0.05 µM (Cytochrome P450 1B1 (CYP1B1, Homo sapiens, UniProt Q16678); enzyme activity, inhibitor; 5 s, pH 7.4).
The IC50 of `Nc1ncnc2c1ncn2[C@@H]1O[C@H](COP(=O)(O)OP(=O)(O)OP(=O)(O)OP(=O)(O)OC[C@H]2O[C@@H](n3cnc4c(N)ncnc43)[C@H](O)[C@@H]2O)[C@@H](O)[C@H]1O` is reported as 11 µM (Protein adenylyltransferase VopS (vopS, Vibrio parahaemolyticus serotype O3:K6, UniProt Q87P32); AMPylation activity, inhibitor, fluorescence polarisation; 3 h, with: Cdc42 Q61L 5 µM, Fl-ATP 250 nM).
The IC50 of `O=C(O)c1ccccc1-c1c2ccc(=O)c([As]3SCCS3)c-2oc2c([As]3SCCS3)c(O)ccc12` is reported as 1.3 µM (Tyrosine-protein phosphatase non-receptor type 11 (PTPN11, Homo sapiens, UniProt Q06124, V368C); enzyme activity, inhibitor; crude Escherichia coli lysate; 120 min, 37 °C, with: pNPP).

Excerpt of the above:
`c1ccc2c(c1)-c1cccc3c1c-2cc1ccccc13` has an IC50 of under 0.05 µM (Cytochrome P450 1B1 (CYP1B1, Homo sapiens, UniProt Q16678); enzyme activity, inhibitor; 5 s, pH 7.4).
With `N#CC1(C#N)C2C=CC(c3coc4cccc2c34)C1(C#N)C#N` (stereo not shown) the IC50 was 16.1 µM (Replicase polyprotein 1ab, main protease (Feline coronavirus, UniProt Q98VG9); enzyme activity, inhibitor, FRET).
`COc1c(Br)cc(C(c2c(O)c3ccccc3oc2=O)c2c(O)c3ccccc3oc2=O)cc1Br` has an IC50 of 3.31 µM (Alpha-glucosidase MAL12 (MAL12, Saccharomyces cerevisiae S288c, UniProt P53341); enzyme activity, inhibitor, absorbance; pH 6.9).
